{"data": "Measurements collected from several papers", "note": "Every numbered part comes from another study and shows a few of its results, in no order.", "chain of UniProt P11388 (whole entry, looked up)": "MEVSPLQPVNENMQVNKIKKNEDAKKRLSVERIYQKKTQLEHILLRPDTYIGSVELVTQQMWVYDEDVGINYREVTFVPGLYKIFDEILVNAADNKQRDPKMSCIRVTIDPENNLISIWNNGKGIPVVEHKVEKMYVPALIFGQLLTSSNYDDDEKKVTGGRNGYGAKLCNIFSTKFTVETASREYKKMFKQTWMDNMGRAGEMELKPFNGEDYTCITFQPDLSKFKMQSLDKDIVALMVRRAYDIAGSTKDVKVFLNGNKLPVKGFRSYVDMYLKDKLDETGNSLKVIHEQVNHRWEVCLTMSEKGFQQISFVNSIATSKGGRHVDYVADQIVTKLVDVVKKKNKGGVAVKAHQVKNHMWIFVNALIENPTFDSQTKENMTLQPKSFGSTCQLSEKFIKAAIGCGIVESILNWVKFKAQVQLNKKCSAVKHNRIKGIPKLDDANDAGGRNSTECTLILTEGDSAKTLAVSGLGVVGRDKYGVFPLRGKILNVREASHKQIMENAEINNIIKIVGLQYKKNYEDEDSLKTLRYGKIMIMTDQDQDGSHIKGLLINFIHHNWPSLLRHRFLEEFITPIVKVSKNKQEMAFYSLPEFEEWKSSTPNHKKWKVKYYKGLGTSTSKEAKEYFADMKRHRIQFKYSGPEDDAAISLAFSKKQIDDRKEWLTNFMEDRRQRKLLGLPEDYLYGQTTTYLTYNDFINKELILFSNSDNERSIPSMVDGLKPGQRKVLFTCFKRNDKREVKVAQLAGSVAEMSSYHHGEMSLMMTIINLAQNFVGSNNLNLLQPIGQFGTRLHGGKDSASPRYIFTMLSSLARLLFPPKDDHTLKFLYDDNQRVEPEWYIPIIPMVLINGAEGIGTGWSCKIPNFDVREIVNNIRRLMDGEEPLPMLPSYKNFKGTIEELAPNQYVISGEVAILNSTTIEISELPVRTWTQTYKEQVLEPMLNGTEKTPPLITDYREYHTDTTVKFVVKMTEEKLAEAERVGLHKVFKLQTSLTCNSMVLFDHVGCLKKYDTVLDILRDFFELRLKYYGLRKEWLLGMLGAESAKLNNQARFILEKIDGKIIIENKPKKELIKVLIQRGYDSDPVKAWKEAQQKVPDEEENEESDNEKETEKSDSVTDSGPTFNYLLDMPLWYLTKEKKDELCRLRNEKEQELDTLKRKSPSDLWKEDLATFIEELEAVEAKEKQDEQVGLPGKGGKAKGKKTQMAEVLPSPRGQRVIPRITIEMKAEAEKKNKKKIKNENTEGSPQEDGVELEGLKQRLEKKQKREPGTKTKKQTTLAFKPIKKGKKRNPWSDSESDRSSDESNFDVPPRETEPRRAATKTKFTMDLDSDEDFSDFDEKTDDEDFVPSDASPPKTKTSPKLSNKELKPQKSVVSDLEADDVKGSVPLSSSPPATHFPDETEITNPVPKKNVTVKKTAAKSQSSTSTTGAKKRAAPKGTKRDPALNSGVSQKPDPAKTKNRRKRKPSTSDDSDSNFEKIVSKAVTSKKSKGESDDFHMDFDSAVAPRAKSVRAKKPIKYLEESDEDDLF"}
{"data": "Series 1", "Structure (SMILES)": "Fc1ccccc1Cc1nc(-c2nc(C(F)(F)F)n[nH]2)cn2ccnc12", "host": "healthy volunteers", "notes": "single ascending dose, unit not given", "reference": "placebo"}
{"dose": "3 mg", "delayed maze test moves": -1.1}
{"dose": "30 mg", "delayed maze test moves": -0.8}
{"dose": "50 mg", "delayed maze test moves": -1.9}
{"dose": "0.3 mg", "delayed maze test moves": 3}
{"data": "Other studies, line by line"}
{"Molecule": "COC(=O)Nc1c(N)nc(-c2nn(Cc3ccccc3F)c3ncc(F)cc23)nc1N", "system": "humans, plasma", "setting": "oral, 10 mg, phase I DDI study, together with: rifampicin", "quantity": "AUC", "value": "3520 ng·h/mL"}
{"Molecule": "HFRIGCRHSRIG", "assay": "refers to: cytochrome c, AIF", "system": "peptide, purified mitochondria", "setting": "1 µM, 30 min", "quantity": "intermembrane protein release", "value": "increased"}
{"Molecule": "N#CCC1CCN(c2nc(Nc3ccc(N4CCC(O)CC4)cc3)c3c(=O)[nH]ncc3n2)CC1", "assay": "vs placebo, Olink multiplex", "system": "human, serum", "setting": "20 mg, day 29, unit not given", "scale": "reference: placebo", "quantity": "IL-18 level difference", "value": -1.05}
{"Molecule": "COc1cc([C@@H]2c3cc4c(cc3[C@@H](O[C@@H]3O[C@@H]5CO[C@@H](C)O[C@H]5[C@H](O)[C@H]3O)[C@H]3COC(=O)[C@H]23)OCO4)cc(OC)c1O", "tested on": "TOP2A (Homo sapiens, UniProt P11388)", "assay": "DNA decatenation, inhibitor, gel-based decatenation", "setting": "25 µM", "quantity": "inhibition", "value": "26.6%"}
{"note": "Excerpt of the above (other studies, line by line):"}
{"Molecule": "HFRIGCRHSRIG", "assay": "refers to: cytochrome c, AIF", "system": "peptide, purified mitochondria", "setting": "1 µM, 30 min", "quantity": "intermembrane protein release", "value": "increased"}
